Measurements from different studies.
Protocols differ between the studies behind these lines. ± marks the error that the study gave.

Structure (SMILES) | cell line | assay | setting | IC50 [µM]
NC(=O)c1ccc(-c2ccccc2Cl)c2c3c([nH]c12)CCC(N)C3 (stereo not shown) | DOHH-2 | cell growth or viability | 96 h | 0.0258
CC(=O)OC[C@H]1O[C@@H](Oc2ccc(C#[C][Pt+])cc2)[C@H](OC(C)=O)[C@@H](OC(C)=O)[C@@H]1OC(C)=O.O=S(=O)([O-])C(F)(F)F.c1ccc(-c2cccc(-c3ccccn3)n2)nc1 | CCD 19Lu | cell growth or viability | 24 h | > 100
CN1CCC(N[C@H]2CCc3[nH]c4c(C(N)=O)ccc(-c5ccccc5Cl)c4c3C2)CC1 | RKO | cell growth or viability |  | 0.826
O=C(NCCOCCNC(=O)c1cc2ccccc2c2ccccc12)c1cc(C(=O)N2CCNCCNCCNCC2)c(O)c(C(=O)N2CCNCCNCCNCC2)c1 | 2C6 normal pancreas | cell viability, MTT | 24 h | > 1000
CC(C)c1ccc(N(C)c2ccc3c(c2)OCC[C@H]3CNc2cnccc2C(=O)O)cc1 | LS-411N | cell growth or viability, ATP luminescence | 7 days | 0.0167
COc1cc(-c2cc(C(C)=O)n3ccccc23)cc(OC)c1C(=O)N(C)C | MV4-11 | cell growth or viability, ATP luminescence |  | 2.01
CCN(C(=O)c1cc(F)ccc1Oc1nncnc1N1CCC2(C1)CN(C(CCCN(C)CCOC)C(C)C)C2)C(C)C (stereo not shown) | MOLM-14 (KMT2A-AF9, FLT3-ITD) | cell growth, live-cell imaging, spheroid-like | concentration not given, 8 days | > 1
CCn1ccc(C2CCCN2S(=O)(=O)c2cc(C)c(C)cc2C)n1 (stereo not shown) | human PBMC monocytes | phagocytosis of anti-D RBCs |  | > 100
CN(C)C(=O)c1cncc(N2Cc3cn(CC4CCCCC4)nc3C2)n1 | HEK293 expressing GluA1 and GluA2 | glutamate excitotoxic cell death, CellTox Green | together with: glutamate | 0.167
CNS(=O)(=O)Nc1nccc(Cc2c(C)c3ccc(Oc4ncccc4F)cc3oc2=O)c1F | MDA-MB-435S | cell viability, CellTiter-Glo | 7 days | 0.0018
CCn1nc(Cl)c2c1-c1cnc(N)c(c1)O[C@H](C)c1cc(F)ccc1-c1nn(C)cc1C2 | Ba/F3 parental | cell viability | together with: 10 ng/mL IL-3 | > 10
Cc1ccc(Cn2cc3c(n2)CN(c2cncc(C(=O)N(C)C)n2)C3)cc1 | HEK293 expressing GluA1 and GluA2 | glutamate excitotoxic cell death, CellTox Green | together with: glutamate | 0.114
Cc1ccc2c(Cl)cc(Cl)c([O-])c2n1.Cc1ccc2c(Cl)cc(Cl)c([O-])c2n1.Cc1ccnc(-c2cc(C)ccn2)c1.[Co+2] | HepG2 | cell growth or viability, MTT | 48 h | 8
CCOc1cncc(-c2ccc(NC(=O)C3(c4ccnc(NS(=O)(=O)C5CC5)n4)CCOCC3)nc2)n1 | Capan-2 | cell growth or viability, ATP luminescence | 72 h | 0.091
O=c1cc(-c2ccc(O)c(O)c2)oc2cc(O)cc([O][Ga+][O]c3cc(O)cc4oc(-c5ccc(O)c(O)c5)cc(=O)c34)c12 | LO2 | cell viability, MTT |  | > 200
CCOC(=O)/C=C1\S/C(=N\N=C\c2cccc3cc4ccccc4nc23)N(CC(C)C)C1=O | SK-BR-3 | cell growth or viability, MTT | 48 h | > 50

Structure (SMILES) | cell line | assay | setting | IC50 [µM]
Cn1ncc(-c2ccc3c(=O)[nH]nc(CN)c3c2)c1-c1c(F)c(Cl)cc(OC2CC2)c1C#N | YCC2 | cell viability | 120 h, relative IC50 | 1.61
O=C(Nc1cc(OCCN2CCCC2)c2ccccc2n1)c1cccc(C(=O)Nc2cc(OCCN3CCCC3)c3ccccc3n2)n1 | HT-1080 | cell growth or viability, ATP luminescence | 72 h | 0.6
CN(C(=O)c1cncc(N2Cc3cn(Cc4ccc(F)cc4)nc3C2)n1)C1CCCC1 | HEK293 expressing GluA1 and GluA2 | glutamate excitotoxic cell death, CellTox Green | together with: glutamate | 0.042
CCOC(=O)/C=C1\S/C(=N\N=C\c2cccc3cc4ccccc4nc23)N(c2ccc([N+](=O)[O-])cc2)C1=O | SK-BR-3 | cell growth or viability, MTT | 48 h | > 50
COC(=O)N1c2ccc3c(nc(Cc4ccccc4)n3[C@@H]3CCC[C@@H](C(=O)O)C3)c2CC[C@@H]1C | HCC70 | cell growth or viability, ATP luminescence | 10 days | 1.79
CN(C)C(=O)c1ccnc(N2Cc3cn(Cc4ccccc4F)nc3C2)n1 | HEK293 expressing GluA1 and GluA2 | glutamate excitotoxic cell death, CellTox Green | together with: glutamate | 0.733
COc1cc(C(=O)N/N=C/c2cccc3ccccc23)cc(OC)c1OC | N6/ADR, multidrug resistant | MTT | 48 h | 0.0858
CN(C)C(=O)c1cccc(N2Cc3cn(Cc4ccc(F)cc4)nc3C2)c1 | HEK293 expressing GluA1 and GluA2 | glutamate excitotoxic cell death, CellTox Green | together with: glutamate | 0.0067
CCn1cc(-c2cccc(C(F)(F)F)c2)c2sc(C(=N)NC3CCS(=O)(=O)CC3)cc2c1=O | MV4-11 | cell growth or viability, ATP luminescence |  | 1.4
COCCNC(=O)c1cccc(N2Cc3cn(Cc4ccc(F)cc4)nc3C2)c1 | HEK293 expressing GluA1 and GluA2 | glutamate excitotoxic cell death, CellTox Green | together with: glutamate | 0.976
CCN1C(=O)CS/C1=N/N=C(\C)c1c(O)c2ccccc2oc1=O | human Skin fibroblast | cell growth or viability, MTT | 48 h | > 100
CN1CCN(C(=O)c2cncc(N3Cc4cnn(Cc5ccc(F)cc5)c4C3)n2)CC1 | HEK293 expressing GluA1 and GluA2 | glutamate excitotoxic cell death, CellTox Green | together with: glutamate | 0.351
O=C(NCc1cc(F)cc(F)c1)[C@@]1(O)CCN(c2ccc3[nH]ccc3c2)C1=O | IMR-5 | cell growth or viability |  | 0.12
O=C(c1ccnc(N2Cc3cnn(Cc4ccc(F)cc4)c3C2)n1)N1CCOCC1 | HEK293 expressing GluA1 and GluA2 | glutamate excitotoxic cell death, CellTox Green | together with: glutamate | 0.018
Cc1ccc(C(C)C)cc1.Cc1ccc(C(C)C)cc1.Cc1ccc(C(C)C)cc1.Cc1ccc(C(C)C)cc1.O=S(=O)(O)C(F)(F)F.O=S(=O)(O)C(F)(F)F.O=S(=O)(O)C(F)(F)F.O=S(=O)(O)C(F)(F)F.c1ccc2c3c4ccccc4c(c2c1)-c1cn(nn1)-c1cc[n+](cc1)[Ru-]1[O]c2c4ccccc4c4c5c(c6ccccc6c(c25)=[O+]1)=[O+][Ru-]([O]4)[n+]1ccc(cc1)-n1cc(nn1)-c1c2ccccc2c(c2ccccc12)-c1cn(nn1)-c1cc[n+](cc1)[Ru-]1[O]c2c4ccccc4c4c5c(c6ccccc6c(c25)=[O+]1)=[O+][Ru-]([O]4)[n+]1ccc(cc1)-n1cc-3nn1 | AGS | cell growth, MTT | 24 h, 20 µM preincubated in medium 0 h at 37 °C | 2.4 ± 0.33
